Results gathered from unrelated publications.
Each line is one published result; not all experiments were run side by side. Values joined by “and” are separate records of one study, mostly repeats; a detail may differ. ± marks the error that the study gave.
Cell line: MDA-MB-231

Structure (SMILES) | test | conditions | IC50
Cc1ccccc1/C=C/C(=O)N[C@@H](CO)C(=O)N[C@H](C(=O)N[C@H](Cc1ccccc1)C(=O)N[C@@H]1C(=O)N2[C@@H](CC(=O)O)C(=O)Nc3ccccc3[C@@]2(O)[C@@H]1O)[C@@H](C)O |  |  | > 20 µM
COc1ccc(CC(=O)N2CCN(CC(OCc3ccc4ccccc4c3)c3ccc(Cl)cc3Cl)CC2)cc1 (stereo not drawn) | cell growth or viability, MTT | 24 h | 24.5 µM
CCC1(c2ccc(NC(=O)CCC(=O)OC3OC4OC5(C)CCC6C(C)CCC(C3C)C46OO5)cc2)CCC(=O)NC1=O (mixture of isomers) | cell growth or viability, CCK-8 |  | > 50 µM
Cc1ccccc1/C=C/C(=O)N[C@@H]1C(=O)N[C@@H](Cc2ccccc2)C(=O)N[C@H](CC(C)C)C(=O)N[C@@H](C(C)C)C(=O)N[C@@H](C)C(=O)N[C@H](CCC(N)=O)C(=O)NCC(=O)N2CCC[C@H]2C(=O)N[C@@H](CCCNC(=N)N)C(=O)N[C@H](Cc2ccccc2)C(=O)O[C@H]1C |  |  | > 20 µM
O=C(Cc1ccc(Br)cc1)N1CCN(CC(OCc2ccc3ccccc3c2)c2ccc(Cl)cc2Cl)CC1 (stereo not drawn) | cell growth or viability, MTT | 24 h | 17.2 µM
C#CCCCC[C@H](C)C[C@@H](C)C(=O)N(C)[C@H](C(=O)N(C)[C@@H](Cc1ccccc1)C(=O)N1CCC[C@H]1C(=O)N1CCC[C@H]1C(C)=O)C(C)C | cell growth or viability, SRB |  | 1.15 µM and 1.18 µM and 1.64 µM
CC1CCC2C(C)C(OC(=O)CCC(=O)N3CCN(CC(=O)Nc4ccc([N+](=O)[O-])c(C(F)(F)F)c4)CC3)OC3OC4(C)CCC1C32OO4 (stereo not drawn) | cell growth or viability, CCK-8 |  | > 50 µM
COC(=O)[C@H](C(C)C)N(C)C(=O)[C@H](C(C)C)N(C)C(=O)[C@@H]1CCCN1C(=O)[C@H](C)N(C)C(=O)OC(C)(C)C | cell growth or viability, SRB |  | 61.1 µM and 52.5 µM and 55.8 µM
CCC1=C(C)C2=C(c3ccc(C(=O)NCCNC(=O)c4ccc(P(=NC(=O)c5ccccn5)(c5ccccc5)c5ccccc5)cc4)cc3)c3c(C)c(CC)c(C)n3[B-](F)(F)[N+]2=C1C | cell viability, MTT | 72 h, 0.1% DMSO | not toxic
CC(C)C12OC1C1OC13C1(C)CCC4=C(COC4=O)C1CC1OC13C2OC(=O)CCCOC1OC(CO)C(O)C(O)C1O (stereo not drawn) | cell growth or viability, XTT | 47 h | 0.26 µM
CCCc1cc2cc(-n3nc(CC)c4c3CC3(CCC3)CC4=O)cc(N3CCC(O)CC3)c2c(=O)[nH]1 | cell growth or viability, MTS |  | 2.89 µM
CCC1=C(C)C2=C(c3ccc(P(=NC4=[O+][Ru-]([Cl])[n+]5ccccc54)(c4ccccc4)c4ccccc4)cc3)c3c(C)c(CC)c(C)n3[B-](C)(C)[N+]2=C1C.Cc1ccc(C(C)C)cc1.Cl | cell viability, MTT | 72 h, 0.1% DMSO | 68.2 ± 8.2 µM
CC1CCC2C(C)C(OC(=O)CCC(=O)OC3C(C)OC(n4cc(F)c(=O)[nH]c4=O)C3OC(=O)CCC(=O)OC3OC4OC5(C)CCC6C(C)CCC(C3C)C46OO5)OC3OC4(C)CCC1C32OO4 (stereo not drawn) | cell growth or viability, CCK-8 |  | > 50 µM
COC(=O)[C@@H](NC(=O)[C@@H](NC(=O)[C@@H](NC(=O)[C@@H]1CCCN1C(=O)[C@H](C)NC(=O)OC(C)(C)C)C(C)C)C(C)C)C(C)C | cell growth or viability, SRB |  | 32.8 µM and 31.6 µM and 33.1 µM
CC[C@H](C)[C@@H]([C@@H](CC(=O)N1CCC[C@H]1[C@H](OC)[C@@H](C)C(=O)N[C@H](C)[C@@H](O)c1ccccc1)OC)N(C)C(=O)[C@@H](NC(=O)[C@H](C(C)C)N(C)C(=O)OCc1ccc(NC(=O)[C@H](CCCNC(N)=O)NC(=O)[C@@H](NC(=O)CCCc2cn(CC(=O)N[C@@H](CCCCNC(=O)CC[C@H](NC(=O)c3ccc(NCc4cnc5nc(N)[nH]c(=O)c5n4)cc3)C(=O)O)C(=O)NCCCC[C@H]3NC(=O)[C@H](CCCCN)NC(=O)[C@H](CCCNC(N)=O)NC(=O)[C@H](Cc4ccc(O)cc4)NC(=O)[C@@H](NC(=O)[C@H](Cc4ccc5ccccc5c4)NC(=O)[C@H](CCCNC(=N)N)NC(=O)[C@@H](N)CCCNC(=N)N)CSSC[C@@H](C(=O)N[C@@H](CCCNC(=N)N)C(N)=O)NC(=O)[C@H](CCCNC(N)=O)NC(=O)[C@H](CCCNC(=N)N)NC(=O)[C@H](Cc4ccc(O)cc4)NC(=O)[C@@H]4CCCN4C3=O)nn2)C(C)C)cc1)C(C)C | cell growth or viability, CCK-8 |  | 1.61 µM

Excerpt of the above:
Structure (SMILES) | test | conditions | IC50
O=C(Cc1ccc(Br)cc1)N1CCN(CC(OCc2ccc3ccccc3c2)c2ccc(Cl)cc2Cl)CC1 (stereo not drawn) | cell growth or viability, MTT | 24 h | 17.2 µM
